{"data": "Assay results collected from several papers", "TMPRSS2": "Transmembrane protease serine 2 (TMPRSS2, Homo sapiens, UniProt O15393)", "PFF0160c E182D": "Dihydroorotate dehydrogenase (quinone), mitochondrial (PFF0160c, Plasmodium falciparum, UniProt Q08210, E182D)", "note": "Compare with care: the assays were run in different laboratories.", "sequence of UniProt O15393 (whole entry, looked up)": "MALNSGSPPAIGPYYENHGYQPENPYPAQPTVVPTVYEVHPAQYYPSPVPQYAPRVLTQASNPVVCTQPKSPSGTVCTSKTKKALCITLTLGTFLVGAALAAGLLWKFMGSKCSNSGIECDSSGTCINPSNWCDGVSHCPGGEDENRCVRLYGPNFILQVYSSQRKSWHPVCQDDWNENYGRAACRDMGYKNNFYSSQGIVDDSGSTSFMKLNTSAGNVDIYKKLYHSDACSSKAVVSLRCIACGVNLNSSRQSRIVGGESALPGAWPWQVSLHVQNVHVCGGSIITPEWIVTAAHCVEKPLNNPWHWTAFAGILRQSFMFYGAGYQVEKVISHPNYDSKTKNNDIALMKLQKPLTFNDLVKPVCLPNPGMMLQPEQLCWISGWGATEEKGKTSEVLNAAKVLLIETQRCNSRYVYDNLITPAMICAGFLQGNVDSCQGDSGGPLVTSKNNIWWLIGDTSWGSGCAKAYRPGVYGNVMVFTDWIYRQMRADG", "sequence of UniProt P10721 (whole entry, unmodified, looked up)": "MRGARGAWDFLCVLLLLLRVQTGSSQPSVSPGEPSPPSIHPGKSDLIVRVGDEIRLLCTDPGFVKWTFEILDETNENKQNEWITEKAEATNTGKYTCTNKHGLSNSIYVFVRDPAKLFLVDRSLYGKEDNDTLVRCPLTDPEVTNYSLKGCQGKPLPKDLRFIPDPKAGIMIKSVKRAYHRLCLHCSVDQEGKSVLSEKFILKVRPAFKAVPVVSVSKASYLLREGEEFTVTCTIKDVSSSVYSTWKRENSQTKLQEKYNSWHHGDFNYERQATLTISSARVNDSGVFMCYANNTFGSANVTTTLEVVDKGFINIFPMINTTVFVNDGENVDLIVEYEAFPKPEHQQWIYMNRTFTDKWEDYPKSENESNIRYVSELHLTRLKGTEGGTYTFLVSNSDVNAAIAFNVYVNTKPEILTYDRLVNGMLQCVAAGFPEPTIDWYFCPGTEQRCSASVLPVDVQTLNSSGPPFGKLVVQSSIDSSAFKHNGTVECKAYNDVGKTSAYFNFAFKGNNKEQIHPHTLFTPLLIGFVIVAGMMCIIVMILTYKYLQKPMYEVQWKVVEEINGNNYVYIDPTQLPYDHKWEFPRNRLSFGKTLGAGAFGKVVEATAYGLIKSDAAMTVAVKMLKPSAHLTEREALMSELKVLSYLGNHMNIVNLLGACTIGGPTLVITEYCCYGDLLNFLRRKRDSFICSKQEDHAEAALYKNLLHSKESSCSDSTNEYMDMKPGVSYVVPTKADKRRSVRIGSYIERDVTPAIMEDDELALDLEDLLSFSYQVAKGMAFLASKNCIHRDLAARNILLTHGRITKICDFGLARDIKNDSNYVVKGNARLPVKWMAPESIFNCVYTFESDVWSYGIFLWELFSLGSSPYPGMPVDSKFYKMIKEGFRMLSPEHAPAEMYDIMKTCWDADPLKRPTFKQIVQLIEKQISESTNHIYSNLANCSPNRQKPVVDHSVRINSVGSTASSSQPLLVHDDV", "sequence of UniProt P52564 (whole entry, looked up)": "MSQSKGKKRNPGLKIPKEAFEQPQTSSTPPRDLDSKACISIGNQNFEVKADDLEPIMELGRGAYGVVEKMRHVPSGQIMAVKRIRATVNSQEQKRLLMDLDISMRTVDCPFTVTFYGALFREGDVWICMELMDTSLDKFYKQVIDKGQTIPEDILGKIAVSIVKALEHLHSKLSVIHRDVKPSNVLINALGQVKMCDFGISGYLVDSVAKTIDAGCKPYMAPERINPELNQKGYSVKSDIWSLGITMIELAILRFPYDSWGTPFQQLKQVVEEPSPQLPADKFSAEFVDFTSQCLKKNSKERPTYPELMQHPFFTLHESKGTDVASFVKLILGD", "sequence of UniProt P07711 (whole entry, looked up)": "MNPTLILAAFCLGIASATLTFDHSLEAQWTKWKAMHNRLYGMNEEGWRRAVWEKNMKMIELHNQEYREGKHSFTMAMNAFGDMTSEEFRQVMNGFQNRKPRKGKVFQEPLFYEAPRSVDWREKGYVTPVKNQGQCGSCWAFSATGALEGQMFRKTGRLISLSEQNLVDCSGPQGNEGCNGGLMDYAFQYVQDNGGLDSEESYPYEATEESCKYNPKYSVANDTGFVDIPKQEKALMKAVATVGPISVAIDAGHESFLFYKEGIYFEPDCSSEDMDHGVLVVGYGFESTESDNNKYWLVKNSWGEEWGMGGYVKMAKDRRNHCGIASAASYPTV", "sequence of UniProt P18089 (whole entry, looked up)": "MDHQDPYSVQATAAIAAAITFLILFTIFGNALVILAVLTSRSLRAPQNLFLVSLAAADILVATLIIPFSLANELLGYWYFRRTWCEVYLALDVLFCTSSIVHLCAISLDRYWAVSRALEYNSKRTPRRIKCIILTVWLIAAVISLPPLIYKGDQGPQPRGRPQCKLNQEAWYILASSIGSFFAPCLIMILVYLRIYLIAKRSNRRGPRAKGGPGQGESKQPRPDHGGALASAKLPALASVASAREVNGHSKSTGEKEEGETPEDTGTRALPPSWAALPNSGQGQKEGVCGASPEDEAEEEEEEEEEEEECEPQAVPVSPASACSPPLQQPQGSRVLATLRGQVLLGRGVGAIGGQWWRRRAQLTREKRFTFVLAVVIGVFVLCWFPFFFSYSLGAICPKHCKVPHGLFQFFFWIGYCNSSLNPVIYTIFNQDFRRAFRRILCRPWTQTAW", "sequence of UniProt P25440 (whole entry, unmodified, looked up)": "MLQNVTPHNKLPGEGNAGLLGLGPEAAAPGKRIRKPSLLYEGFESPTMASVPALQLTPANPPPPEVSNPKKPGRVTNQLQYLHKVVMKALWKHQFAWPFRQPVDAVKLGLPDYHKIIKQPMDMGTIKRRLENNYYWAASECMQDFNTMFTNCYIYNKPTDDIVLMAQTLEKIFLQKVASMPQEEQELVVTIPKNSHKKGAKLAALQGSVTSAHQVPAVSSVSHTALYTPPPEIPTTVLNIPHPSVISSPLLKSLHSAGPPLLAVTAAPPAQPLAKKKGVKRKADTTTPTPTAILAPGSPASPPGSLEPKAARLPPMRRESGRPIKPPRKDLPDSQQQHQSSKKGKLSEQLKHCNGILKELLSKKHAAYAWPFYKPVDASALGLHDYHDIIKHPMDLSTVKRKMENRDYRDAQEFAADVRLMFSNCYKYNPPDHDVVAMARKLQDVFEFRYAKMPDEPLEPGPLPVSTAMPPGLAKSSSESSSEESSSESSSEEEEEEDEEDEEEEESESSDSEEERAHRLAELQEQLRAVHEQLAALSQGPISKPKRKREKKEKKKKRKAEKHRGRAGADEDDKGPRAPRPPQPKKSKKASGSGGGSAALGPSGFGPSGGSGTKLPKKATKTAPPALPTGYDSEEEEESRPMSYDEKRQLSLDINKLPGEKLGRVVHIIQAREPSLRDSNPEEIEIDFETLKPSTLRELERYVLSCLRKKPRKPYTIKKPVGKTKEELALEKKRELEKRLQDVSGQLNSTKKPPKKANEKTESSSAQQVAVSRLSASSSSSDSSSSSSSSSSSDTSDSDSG", "sequence of UniProt P22303 (whole entry, looked up)": "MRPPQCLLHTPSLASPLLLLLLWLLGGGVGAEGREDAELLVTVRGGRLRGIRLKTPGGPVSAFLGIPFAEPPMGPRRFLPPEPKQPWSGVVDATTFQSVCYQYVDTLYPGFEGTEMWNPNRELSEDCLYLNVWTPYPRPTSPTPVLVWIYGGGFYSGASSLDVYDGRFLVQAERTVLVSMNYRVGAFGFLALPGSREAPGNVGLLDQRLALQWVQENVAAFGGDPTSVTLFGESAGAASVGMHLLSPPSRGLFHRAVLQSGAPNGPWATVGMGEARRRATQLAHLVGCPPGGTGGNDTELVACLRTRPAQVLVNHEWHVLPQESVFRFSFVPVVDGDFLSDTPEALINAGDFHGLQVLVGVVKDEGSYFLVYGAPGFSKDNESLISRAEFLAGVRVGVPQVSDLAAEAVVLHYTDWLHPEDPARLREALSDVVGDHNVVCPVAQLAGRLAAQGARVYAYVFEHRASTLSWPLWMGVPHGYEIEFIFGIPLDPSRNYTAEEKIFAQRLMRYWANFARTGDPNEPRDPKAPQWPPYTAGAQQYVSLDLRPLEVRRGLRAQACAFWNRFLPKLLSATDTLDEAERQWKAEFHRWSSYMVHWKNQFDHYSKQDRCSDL", "sequence of UniProt P28221 (whole entry, looked up)": "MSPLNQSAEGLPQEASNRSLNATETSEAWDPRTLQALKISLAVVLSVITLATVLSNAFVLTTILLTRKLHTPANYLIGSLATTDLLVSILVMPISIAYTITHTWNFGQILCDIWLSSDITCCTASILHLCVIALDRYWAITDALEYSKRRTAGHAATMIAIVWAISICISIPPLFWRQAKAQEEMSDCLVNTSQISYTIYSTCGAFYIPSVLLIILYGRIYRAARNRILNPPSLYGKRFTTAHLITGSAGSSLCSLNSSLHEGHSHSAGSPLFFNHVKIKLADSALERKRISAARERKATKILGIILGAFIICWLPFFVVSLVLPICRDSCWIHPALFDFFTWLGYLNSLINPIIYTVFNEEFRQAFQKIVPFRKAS", "sequence of UniProt P34968 (whole entry, looked up)": "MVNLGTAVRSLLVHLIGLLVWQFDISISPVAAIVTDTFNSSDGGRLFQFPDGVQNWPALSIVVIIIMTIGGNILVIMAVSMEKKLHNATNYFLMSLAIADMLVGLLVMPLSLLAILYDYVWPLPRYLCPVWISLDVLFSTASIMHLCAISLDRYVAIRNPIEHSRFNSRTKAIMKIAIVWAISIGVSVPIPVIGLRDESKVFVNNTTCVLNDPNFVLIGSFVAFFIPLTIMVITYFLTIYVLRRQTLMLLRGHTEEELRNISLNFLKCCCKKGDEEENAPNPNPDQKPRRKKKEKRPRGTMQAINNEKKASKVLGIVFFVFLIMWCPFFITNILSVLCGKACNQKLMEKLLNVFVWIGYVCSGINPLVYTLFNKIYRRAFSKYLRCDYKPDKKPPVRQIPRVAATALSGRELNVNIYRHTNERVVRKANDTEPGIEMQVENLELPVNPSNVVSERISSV"}
{"SMILES": "[2H]c1c([2H])c([C@]2([2H])CCCN2C(=O)C(C)(C)Oc2ccc3cn[nH]c3c2)c([2H])c([2H])c1C([2H])([2H])[2H]", "tested on": "MAP2K6 (Homo sapiens, UniProt P52564)", "test": "binding, competition with immobilised ligand", "conditions": "1 µM", "endpoint": "remaining binding", "value": "94%"}
{"SMILES": "CC(C)CC(=O)OC[C@H]1O[C@@](C#N)(c2ccc3c(N)ncnn23)[C@H](O)[C@@H]1O", "tested on": "PPARG (Homo sapiens, UniProt P37231)", "test": "cell-free assay", "conditions": "20 µM", "endpoint": "inhibition", "value": "9%"}
{"SMILES": "CC[C@H](C)[C@H](NC(=O)[C@H](Cc1ccccc1)NC(=O)[C@H](CCC(=O)O)NC(=O)[C@H](CCCNC(=N)N)NC(=O)[C@H](C)NC(=O)[C@H](C)NC(=O)[C@H](CCC(N)=O)NC(=O)[C@H](CCC(=O)O)NC(=O)[C@H](CCC(=O)O)NC(=O)[C@H](CC(C)C)NC(=O)[C@H](Cc1ccc(O)cc1)NC(=O)[C@H](CO)NC(=O)[C@H](CO)NC(=O)[C@@H](NC(=O)[C@H](CC(=O)O)NC(=O)[C@H](CO)NC(=O)[C@@H](NC(=O)[C@H](Cc1ccccc1)NC(=O)[C@@H](NC(=O)CNC(=O)[C@H](CCC(=O)O)NC(=O)[C@H](C)NC(=O)CCc1c[nH]cn1)[C@@H](C)O)[C@@H](C)O)C(C)C)C(=O)N[C@@H](C)C(=O)N[C@@H](Cc1c[nH]c2ccccc12)C(=O)N[C@@H](CC(C)C)C(=O)N[C@H](C(=O)N[C@@H](CCCNC(=N)N)C(=O)NCC(=O)N[C@@H](CCCNC(=N)N)C(=O)N[C@@H](CCCCNC(=O)COCCOCCNC(=O)COCCOCCNC(=O)CC[C@H](NC(=O)CCCCCCCCCCCCCCCCC(=O)O)C(=O)O)C(=O)NCC(=O)NCC(=O)N[C@@H](CO)C(=O)N[C@@H](CCCCNc1c(NCCCCCN(O)C(=O)CCC(=O)NCCCCCN(O)C(=O)CCC(=O)NCCCCCN(O)C(C)=O)c(=O)c1=O)C(=O)O)C(C)C", "test system": "rat, plasma", "conditions": "subcutaneous, 20 nmol/kg, single dose", "endpoint": "Cmax", "value": "60.8 nM"}
{"SMILES": "[18FH]", "test system": "mouse, liver", "conditions": "intravenous, 1 h", "endpoint": "tracer uptake", "value": "0.17 %ID/g"}
{"SMILES": "N.N.[Cl][Pt][Cl]", "tested on": "MOLT-4", "test": "cell growth or viability, ATP luminescence", "conditions": "10 µM, 72 h", "endpoint": "inhibition", "value": "100%"}
{"SMILES": "CC(C)C[C@H](NC(=O)[C@H](CCc1ccccc1)NC(=O)CCc1ccccc1)C(=O)N[C@@H](CCCNC(=N)N)C(=O)c1nc2ccccc2s1", "tested on": "TMPRSS2", "test": "enzyme activity, inhibitor", "conditions": "1 nM", "endpoint": "activity vs control", "value": "84%"}
{"SMILES": "CN1CCC[C@H]1c1cccnc1", "tested on": "HTR1D (Homo sapiens, UniProt P28221)", "test": "cell-free assay", "conditions": "50 µM", "endpoint": "inhibition", "value": "-18.1%"}
{"SMILES": "CCN(CC)CCCC[C@H](NC(=O)[C@H](CC(C)C)NC(=O)[C@H](C)NC(=O)[C@H](Cc1ccccc1)NC(=O)c1ccc(C(C)(C)C)cc1)C(=O)N[C@@H](CO)C(=O)OC", "tested on": "Bromodomain-containing protein 2, BD2 (BRD2, Homo sapiens, UniProt P25440)", "test": "thermal stability, DSF", "conditions": "25 µM", "endpoint": "ΔTm", "value": "0.04 °C"}
{"SMILES": "CCCCCCCCC(=O)NC(CCCNC(=N)N)C(=O)N[C@@H](CCC(N)=O)C(=O)N[C@@H](Cc1ccccc1)C(=O)N[C@@H](CCCNC(=N)N)C(=O)c1nc2ccccc2s1 (some centres unmarked)", "tested on": "TMPRSS2", "test": "enzyme activity, inhibitor", "conditions": "1 nM", "endpoint": "activity vs control", "value": "80%"}
{"SMILES": "Oc1ccc(CCc2cc(O)cc(O)c2)cc1", "tested on": "Procathepsin L (CTSL, Homo sapiens, UniProt P07711)", "test": "enzyme activity, inhibitor", "conditions": "100 µM", "endpoint": "remaining activity", "value": "48.3%"}
{"SMILES": "C#Cc1n[nH]c2c(-c3cn([C@@H](C)c4ccccn4)c(=O)[nH]c3=O)cc(F)cc12", "tested on": "Cyclin-dependent kinase 1, with cyclin B (CDK1, Homo sapiens, UniProt P06493)", "test": "enzyme activity, inhibitor", "conditions": "0.1 µM", "endpoint": "inhibition", "value": "4.4%"}
{"SMILES": "CC(C)C[C@H](NC(=O)[C@H](Cc1ccccc1)NC(=O)[C@H](Cc1ccccc1)NC(=O)Cc1ccc(-c2ccccc2)cc1)C(=O)N[C@@H](CCCCN)C(=O)N[C@@H](CCCNC(=N)N)C(=O)N[C@H](C(=O)N[C@@H](Cc1c[nH]c2ccccc12)C(=O)N[C@@H](CCCCN)C(=O)N[C@@H](CCCNC(=N)N)C(=O)O)C(C)C", "test": "metabolic stability, mass spectrometry", "test system": "human, liver microsomes", "conditions": "30 min", "endpoint": "compound remaining", "value": "29.4%"}
{"SMILES": "COc1ncccc1-c1cnn2ccc(N3CCN(C(=O)OC(C)C)CC3)nc12", "tested on": "DYRK2 (Homo sapiens, UniProt Q92630)", "test": "binding, competition with immobilised ligand", "conditions": "1 µM", "endpoint": "remaining binding", "value": "63%"}
{"SMILES": "CC[C@@H](C)[C@@H]1CN([C@@H](CC2CCCCC2)CN2CCC[C@H]2CN2CCNC[C@@H]2CO)CCN1CCc1ccc(Cl)c(Cl)c1", "tested on": "OPRK1 (Cavia porcellus, UniProt P41144)", "test": "ligand displacement, radioligand", "conditions": "0.5 µM, pH 7.5", "endpoint": "remaining binding", "value": "101%"}
{"SMILES": "CCc1cc2c(cc1CC)CC(NC[C@@H](O)c1ccc(O)c3[nH]c(=O)ccc13)C2", "tested on": "PFF0160c E182D", "test": "enzyme activity, inhibitor, absorbance", "endpoint": "IC50", "value": "3280 nM"}
{"SMILES": "COC(=O)c1cc(-c2cccc(NC(=S)Nc3ccc(F)c(Cl)c3)c2)on1", "tested on": "Pseudomonas aeruginosa", "test": "microbial growth, broth dilution", "test system": "ATCC27853", "endpoint": "MIC", "value": "> 64 µg/mL"}
{"SMILES": "Nc1ncc(-c2nc(N3CCOCC3)nc(N3CCOCC3)n2)c(C(F)F)n1", "tested on": "KIT (Homo sapiens, UniProt P10721, L576P)", "test": "binding, competition with immobilised ligand", "conditions": "10 µM", "endpoint": "remaining binding", "value": "7.4%"}
{"SMILES": "CC(=O)N[C@@H](CCCNC(=N)N)C(=O)N[C@@H](CCC(N)=O)C(=O)N[C@@H](C)C(=O)N[C@@H](CCCNC(=N)N)C(=O)c1nc2ccccc2s1", "tested on": "TMPRSS2", "test": "enzyme activity, inhibitor", "conditions": "1 nM", "endpoint": "activity vs control", "value": "82%"}
{"SMILES": "COc1cc(C(F)(F)F)c(OC)cc1C1CCCNC1 (centres unmarked)", "tested on": "Htr2c (Mus musculus, UniProt P34968)", "test": "G protein activation, agonist, BRET", "endpoint": "Emax", "value": "76%"}
{"SMILES": "c1cncc([C@@H]2CCCN2)c1", "tested on": "ADRA2B (Homo sapiens, UniProt P18089)", "test": "ligand displacement", "conditions": "50 µM", "endpoint": "inhibition", "value": "-17.9%"}
{"SMILES": "CC(=O)N[C@@H](CCC(N)=O)C(=O)N[C@@H](Cc1ccncc1)C(=O)N[C@@H](CCCNC(=N)N)C(=O)c1nc2ccccc2s1", "tested on": "TMPRSS2", "test": "enzyme activity, inhibitor", "conditions": "1 nM", "endpoint": "activity vs control", "value": "96%"}
{"SMILES": "CCc1ccc(N2C(=O)/C(=C3/C(=O)N(C)c4ccc(Cl)cc43)NC2=S)cc1", "tested on": "ACHE (Homo sapiens, UniProt P22303)", "test": "enzyme activity, inhibitor, Ellman", "conditions": "10 nM", "endpoint": "inhibition", "value": "6%"}
{"SMILES": "N=C(N)NCCCC(NC(=O)[C@@H]1CCCN1C(=O)[C@H](CC(N)=O)NC(=O)[C@@H](N)CCCNC(=N)N)C(=O)c1nc2ccccc2s1 (some centres unmarked)", "tested on": "TMPRSS2", "test": "enzyme activity, inhibitor", "conditions": "1 nM", "endpoint": "activity vs control", "value": "83%"}
{"SMILES": "O=C(c1ccc(Cl)cc1)N1CCCC(C(=O)N(Cc2nnc(-c3ccccc3Cl)o2)C2CC2)C1 (centres unmarked)", "tested on": "PFF0160c E182D", "test": "enzyme activity, inhibitor, absorbance", "endpoint": "IC50", "value": "756 nM"}
{"SMILES": "N=C(N)NCCC[C@H](N)C(=O)N[C@@H](CCC(N)=O)C(=O)N[C@@H](CC(=O)O)C(=O)N[C@H](CCCNC(=N)N)C(=O)c1nc2ccccc2s1", "tested on": "TMPRSS2", "test": "enzyme activity, inhibitor", "conditions": "1 nM", "endpoint": "activity vs control", "value": "87%"}
{"SMILES": "Cc1nn(C)cc1-c1nc2c(N3CCN(Cc4ccc(Cl)cc4)CC3)c(Cl)cnc2[nH]1", "tested on": "KIT (Homo sapiens, UniProt P10721, T670I/V559D)", "test": "binding, competition with immobilised ligand", "conditions": "1 µM", "endpoint": "remaining binding", "value": "19%"}
{"note": "Repeated from above:"}
{"SMILES": "N=C(N)NCCCC(NC(=O)[C@@H]1CCCN1C(=O)[C@H](CC(N)=O)NC(=O)[C@@H](N)CCCNC(=N)N)C(=O)c1nc2ccccc2s1 (some centres unmarked)", "tested on": "TMPRSS2", "test": "enzyme activity, inhibitor", "conditions": "1 nM", "endpoint": "activity vs control", "value": "83%"}
{"SMILES": "O=C(c1ccc(Cl)cc1)N1CCCC(C(=O)N(Cc2nnc(-c3ccccc3Cl)o2)C2CC2)C1 (centres unmarked)", "tested on": "PFF0160c E182D", "test": "enzyme activity, inhibitor, absorbance", "endpoint": "IC50", "value": "756 nM"}
